Measured values from different studies.
Each numbered part is a random draw from the data of one study; scales do not carry over between parts.
Chain of UniProt P52333 (whole entry, looked up): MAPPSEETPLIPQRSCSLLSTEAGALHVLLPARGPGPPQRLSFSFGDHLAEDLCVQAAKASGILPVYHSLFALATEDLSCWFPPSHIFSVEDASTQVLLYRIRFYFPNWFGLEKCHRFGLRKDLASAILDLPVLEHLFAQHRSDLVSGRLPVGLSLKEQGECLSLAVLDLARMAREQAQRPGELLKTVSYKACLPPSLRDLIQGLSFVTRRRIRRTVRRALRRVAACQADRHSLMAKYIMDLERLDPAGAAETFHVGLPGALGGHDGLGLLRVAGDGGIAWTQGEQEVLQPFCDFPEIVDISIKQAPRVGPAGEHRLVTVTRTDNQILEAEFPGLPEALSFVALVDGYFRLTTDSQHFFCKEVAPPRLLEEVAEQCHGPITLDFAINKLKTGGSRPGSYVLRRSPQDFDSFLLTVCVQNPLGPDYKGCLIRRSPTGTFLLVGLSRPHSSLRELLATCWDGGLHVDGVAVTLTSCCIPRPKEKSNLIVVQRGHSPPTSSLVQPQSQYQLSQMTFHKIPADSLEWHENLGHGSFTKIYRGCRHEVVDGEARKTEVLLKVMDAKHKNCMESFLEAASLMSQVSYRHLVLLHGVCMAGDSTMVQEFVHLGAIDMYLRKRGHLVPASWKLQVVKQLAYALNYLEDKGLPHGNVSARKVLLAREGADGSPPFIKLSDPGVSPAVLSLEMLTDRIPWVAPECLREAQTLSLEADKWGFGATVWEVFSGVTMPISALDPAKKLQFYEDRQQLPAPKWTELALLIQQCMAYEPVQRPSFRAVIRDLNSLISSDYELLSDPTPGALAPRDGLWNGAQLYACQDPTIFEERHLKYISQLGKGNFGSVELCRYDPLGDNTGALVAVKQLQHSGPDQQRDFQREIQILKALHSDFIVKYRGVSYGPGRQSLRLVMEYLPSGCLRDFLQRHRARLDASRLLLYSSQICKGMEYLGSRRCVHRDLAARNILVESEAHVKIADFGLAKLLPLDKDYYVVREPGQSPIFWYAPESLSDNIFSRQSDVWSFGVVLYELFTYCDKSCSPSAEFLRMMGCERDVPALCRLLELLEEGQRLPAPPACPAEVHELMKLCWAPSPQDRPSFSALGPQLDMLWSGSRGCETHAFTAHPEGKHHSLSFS
Chain of UniProt Q9HC98 (whole entry, looked up): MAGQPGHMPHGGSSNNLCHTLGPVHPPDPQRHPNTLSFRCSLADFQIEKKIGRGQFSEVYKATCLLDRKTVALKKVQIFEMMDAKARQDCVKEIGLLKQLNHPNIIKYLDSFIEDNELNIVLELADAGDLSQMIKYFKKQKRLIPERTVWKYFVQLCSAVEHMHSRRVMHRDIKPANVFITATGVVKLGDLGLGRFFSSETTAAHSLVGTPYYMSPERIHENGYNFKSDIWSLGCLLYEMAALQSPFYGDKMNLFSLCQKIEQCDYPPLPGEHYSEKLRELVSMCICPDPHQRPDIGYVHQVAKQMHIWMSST
Chain of UniProt P10721 (whole entry, unmodified, looked up): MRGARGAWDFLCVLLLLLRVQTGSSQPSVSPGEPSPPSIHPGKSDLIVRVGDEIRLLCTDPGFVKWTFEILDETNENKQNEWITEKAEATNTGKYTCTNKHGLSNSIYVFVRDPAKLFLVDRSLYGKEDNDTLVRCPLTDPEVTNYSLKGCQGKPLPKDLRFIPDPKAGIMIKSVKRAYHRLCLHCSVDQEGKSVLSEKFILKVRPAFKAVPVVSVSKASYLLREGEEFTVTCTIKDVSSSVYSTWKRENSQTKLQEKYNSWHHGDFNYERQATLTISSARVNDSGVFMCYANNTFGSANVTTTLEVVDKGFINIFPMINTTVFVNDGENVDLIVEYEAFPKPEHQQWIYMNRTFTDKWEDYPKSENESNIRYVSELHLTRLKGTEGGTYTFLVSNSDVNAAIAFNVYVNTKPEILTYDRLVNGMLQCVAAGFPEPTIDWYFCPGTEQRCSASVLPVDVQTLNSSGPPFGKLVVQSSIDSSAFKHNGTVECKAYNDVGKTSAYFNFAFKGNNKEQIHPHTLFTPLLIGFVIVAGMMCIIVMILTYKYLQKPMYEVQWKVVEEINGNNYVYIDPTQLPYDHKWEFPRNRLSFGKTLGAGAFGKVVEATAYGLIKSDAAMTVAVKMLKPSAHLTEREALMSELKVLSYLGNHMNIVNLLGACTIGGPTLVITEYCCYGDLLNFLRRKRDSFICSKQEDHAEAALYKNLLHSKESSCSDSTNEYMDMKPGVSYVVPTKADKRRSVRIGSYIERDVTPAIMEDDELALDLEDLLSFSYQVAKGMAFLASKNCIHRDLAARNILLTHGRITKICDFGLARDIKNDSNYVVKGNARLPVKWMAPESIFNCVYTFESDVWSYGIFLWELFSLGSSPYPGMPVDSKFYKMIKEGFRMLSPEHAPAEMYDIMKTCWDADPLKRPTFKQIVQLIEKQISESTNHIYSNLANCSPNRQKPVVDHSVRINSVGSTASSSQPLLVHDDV
Chain of UniProt Q96PN8 (whole entry, looked up): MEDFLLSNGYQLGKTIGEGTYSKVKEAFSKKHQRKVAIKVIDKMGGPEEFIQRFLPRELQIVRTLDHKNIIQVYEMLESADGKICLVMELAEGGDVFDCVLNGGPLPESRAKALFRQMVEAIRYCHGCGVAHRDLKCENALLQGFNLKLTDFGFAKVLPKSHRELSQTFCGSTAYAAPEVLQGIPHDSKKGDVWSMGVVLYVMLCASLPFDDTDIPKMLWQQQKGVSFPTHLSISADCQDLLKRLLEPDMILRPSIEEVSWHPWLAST
Chain of UniProt P78368 (whole entry, looked up): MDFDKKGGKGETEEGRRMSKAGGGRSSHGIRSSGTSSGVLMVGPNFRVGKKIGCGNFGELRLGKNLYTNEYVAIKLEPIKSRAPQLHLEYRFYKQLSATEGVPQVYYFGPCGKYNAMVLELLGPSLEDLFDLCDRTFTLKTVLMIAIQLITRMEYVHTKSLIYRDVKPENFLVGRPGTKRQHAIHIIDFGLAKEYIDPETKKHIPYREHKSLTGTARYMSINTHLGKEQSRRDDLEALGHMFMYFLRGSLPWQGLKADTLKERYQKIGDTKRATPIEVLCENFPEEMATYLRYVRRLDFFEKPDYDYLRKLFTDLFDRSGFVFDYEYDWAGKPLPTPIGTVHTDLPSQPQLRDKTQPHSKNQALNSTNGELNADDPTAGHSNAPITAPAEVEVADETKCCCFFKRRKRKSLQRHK
Chain of UniProt P10398 (whole entry, looked up): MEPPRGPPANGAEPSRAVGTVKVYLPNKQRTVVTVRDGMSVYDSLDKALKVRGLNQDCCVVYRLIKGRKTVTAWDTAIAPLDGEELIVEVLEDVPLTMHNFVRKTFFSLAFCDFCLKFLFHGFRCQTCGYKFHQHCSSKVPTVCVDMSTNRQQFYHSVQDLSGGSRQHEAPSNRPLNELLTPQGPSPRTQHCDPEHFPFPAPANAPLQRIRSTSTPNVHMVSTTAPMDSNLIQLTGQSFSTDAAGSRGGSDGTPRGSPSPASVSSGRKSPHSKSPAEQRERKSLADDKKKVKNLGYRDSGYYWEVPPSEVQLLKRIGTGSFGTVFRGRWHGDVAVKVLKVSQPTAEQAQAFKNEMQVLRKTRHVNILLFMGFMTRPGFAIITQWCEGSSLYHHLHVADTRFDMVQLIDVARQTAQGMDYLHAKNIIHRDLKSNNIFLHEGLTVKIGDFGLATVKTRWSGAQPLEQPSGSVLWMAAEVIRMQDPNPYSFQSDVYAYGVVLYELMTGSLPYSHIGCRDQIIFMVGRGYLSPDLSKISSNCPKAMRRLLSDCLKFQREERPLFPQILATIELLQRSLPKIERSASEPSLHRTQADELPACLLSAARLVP
Chain of UniProt Q16566 (whole entry, looked up): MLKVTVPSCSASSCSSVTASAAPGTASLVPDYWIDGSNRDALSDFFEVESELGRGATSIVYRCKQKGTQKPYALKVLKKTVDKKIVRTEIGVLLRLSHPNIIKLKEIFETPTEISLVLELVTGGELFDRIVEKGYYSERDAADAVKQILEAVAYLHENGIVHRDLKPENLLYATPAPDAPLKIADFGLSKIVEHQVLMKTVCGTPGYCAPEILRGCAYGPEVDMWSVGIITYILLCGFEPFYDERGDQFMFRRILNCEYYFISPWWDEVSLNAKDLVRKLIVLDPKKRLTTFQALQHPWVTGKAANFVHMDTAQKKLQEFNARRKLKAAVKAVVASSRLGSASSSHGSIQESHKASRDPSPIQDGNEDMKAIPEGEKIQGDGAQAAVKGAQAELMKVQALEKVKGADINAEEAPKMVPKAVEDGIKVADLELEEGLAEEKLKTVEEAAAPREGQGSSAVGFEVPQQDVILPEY
Chain of UniProt P30291 (whole entry, looked up): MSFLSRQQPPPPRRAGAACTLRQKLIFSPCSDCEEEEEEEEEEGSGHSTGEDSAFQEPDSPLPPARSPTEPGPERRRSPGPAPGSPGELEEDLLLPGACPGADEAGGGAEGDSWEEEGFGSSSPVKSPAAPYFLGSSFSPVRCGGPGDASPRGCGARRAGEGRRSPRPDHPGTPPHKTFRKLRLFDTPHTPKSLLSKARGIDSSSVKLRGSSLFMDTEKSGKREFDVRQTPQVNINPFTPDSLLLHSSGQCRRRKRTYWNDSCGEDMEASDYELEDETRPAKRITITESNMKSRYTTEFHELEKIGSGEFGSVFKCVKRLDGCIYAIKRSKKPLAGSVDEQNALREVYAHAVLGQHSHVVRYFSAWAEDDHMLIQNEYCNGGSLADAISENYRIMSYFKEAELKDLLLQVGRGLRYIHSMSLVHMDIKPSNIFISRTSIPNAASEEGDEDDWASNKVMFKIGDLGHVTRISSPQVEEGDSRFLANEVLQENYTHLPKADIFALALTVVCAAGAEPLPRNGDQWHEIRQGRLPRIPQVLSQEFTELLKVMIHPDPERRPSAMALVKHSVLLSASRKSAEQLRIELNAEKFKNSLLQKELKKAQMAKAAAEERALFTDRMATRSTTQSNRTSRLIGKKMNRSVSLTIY

Series 1
Target: Histone acetyltransferase KAT6A, winged helix 2, GST fusion (KAT6A, Homo sapiens, UniProt Q92794, residues 85-181)
Technique: protein binding microarray
Molecule type: double-stranded DNA, one strand shown
Medium: in vitro
Concentration: not given
Notes: 8-mer, flanks averaged, mean of 2 arrays, mostly near background
Reference: not given
Direction: higher = stronger binding
Target sequence (chain): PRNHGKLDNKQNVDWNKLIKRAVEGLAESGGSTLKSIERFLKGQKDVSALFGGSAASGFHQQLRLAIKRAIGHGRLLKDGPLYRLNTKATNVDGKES
Strand	E-score
AGGCGGTG	0.163
CGACACGA	0.114
AAGATCAG	0.123
CCAGCTGC	-0.0402
ACATCCGT	-0.0764
GCAACAGC	0.0219
ACAAGGGA	0.103
AGTGACGA	0.0866

Series 2
Species: mouse
Medium: microsomes or S9
Concentration: 2 µM
Time: 0.5 h
SMILES	remaining compound [%]
CN(C)CCCOc1ccc(CN2CCC(NC(=O)c3ccc(Br)o3)CC2)cc1	76.1
CN(C)c1noc(C2CCCN(c3nccnc3C#N)C2)n1 (centres unmarked)	56.5
Cc1cc(C)n2nc(C(=O)N3C[C@@H](N)C[C@H]3C(=O)NC(C)C)cc2n1	81.9
Cc1cc(C)cc(-n2nc(C(=O)N(CC(N)=O)CC(C)C)cc2C)c1	4.92
Cc1ccnn1CCNC(=O)CCc1nc2ncc(Br)cc2[nH]1	64.2
CCOc1ccsc1C1=NOC(C)(COCc2c(Cl)cccc2Cl)C1 (centres unmarked)	0

Series 3
Compound: CCC(=O)N[C@H]1CC[C@@H](C(=O)N(C)c2ccc(-c3nc4ccccc4o3)cc2)C1
Read-out: cell-free assay
Technique: competition with immobilised ligand
Concentration: 1 µM
target	remaining binding [%]
MAP2K6 (Homo sapiens, UniProt P52564)	100
CAMK2D (Homo sapiens, UniProt Q13557)	91
CAMK4 (Homo sapiens, UniProt Q16566)	88
CDK14 (Homo sapiens, UniProt O94921)	92
TESK1 (Homo sapiens, UniProt Q15569)	100
TSSK3 (Homo sapiens, UniProt Q96PN8)	100
KIT (Homo sapiens, UniProt P10721, D816H)	85

Series 4
Structure (SMILES): O=C1NC(=O)C(c2c[nH]c3ccccc23)=C1c1c[nH]c2ccccc12
Read-out: enzyme activity
Action: inhibitor
Concentration: 0.5 µM
Reference: control
target	remaining activity [%]
NEK1 (Homo sapiens, UniProt Q96PY6)	93.8
CSNK1G2 (Homo sapiens, UniProt P78368)	92
LCK (Homo sapiens, UniProt P06239)	85.1
GSK3B (Homo sapiens, UniProt P49841)	28.4
TEK (Homo sapiens, UniProt Q02763)	101
TAOK2 (Homo sapiens, UniProt Q9UL54)	102
CSNK1G3 (Homo sapiens, UniProt Q9Y6M4)	89.9
ARAF (Homo sapiens, UniProt P10398)	155
JAK3 (Homo sapiens, UniProt P52333)	63
WEE1 (Homo sapiens, UniProt P30291)	98.1
MAP3K5 (Homo sapiens, UniProt Q99683)	106
MAP3K14 (Homo sapiens, UniProt Q99558)	91
NEK6 (Homo sapiens, UniProt Q9HC98)	101
FRK (Homo sapiens, UniProt P42685)	88.2

Excerpt of the above (series 4):
target	remaining activity [%]
CSNK1G3 (Homo sapiens, UniProt Q9Y6M4)	89.9
ARAF (Homo sapiens, UniProt P10398)	155
JAK3 (Homo sapiens, UniProt P52333)	63
WEE1 (Homo sapiens, UniProt P30291)	98.1
MAP3K5 (Homo sapiens, UniProt Q99683)	106
